Assay results of several laboratories.
A part holds a random share of what one study measured. Substitutions count along the parent as printed.

Block 1
Target: CREBRF, bZIP domain (human)
Method: DHFR protein complementation
Matrix: yeast
Notes: single substitutions, most at no-binding floor
Relative to: wild-type JUN-FOS pair
Direction: higher = stronger binding
Measurement: binding fitness
Starting sequence: JUN, bZIP domain (human); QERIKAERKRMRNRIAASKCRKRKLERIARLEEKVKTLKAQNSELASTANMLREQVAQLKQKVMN; partner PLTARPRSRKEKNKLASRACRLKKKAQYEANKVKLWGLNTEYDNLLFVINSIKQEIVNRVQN
Variant = A40S; value = -1.52 natural log
Variant = V35A; value = -1.5 natural log
Variant = L38M; value = -1.4 natural log
Variant = E32K; value = -1.29 natural log
Variant = K36N; value = -1.52 natural log
Variant = A29R; value = -1.38 natural log
Variant = M51P; value = -1.53 natural log
Variant = E33G; value = -1.46 natural log
Variant = A57E; value = -1.58 natural log
Variant = Q41E; value = -1.3 natural log
Variant = A49T; value = -1.55 natural log
Variant = N42L; value = -1.45 natural log
Variant = L45H; value = -1.56 natural log
Variant = A57K; value = -1.54 natural log

Block 2
Target: ABI1, truncated, D143A, DHFR fusion (Arabidopsis thaliana)
Method: DHFR PCA, deep sequencing
Matrix: yeast
Notes: methotrexate growth selection, single substitutions
Together with: (+)-ABA 0.032 µM
Relative to: wild-type fitted maximum
Direction: higher = stronger binding
Measurement: relative binding score
Starting sequence: PYL1, truncated, DHFR fusion (Arabidopsis thaliana); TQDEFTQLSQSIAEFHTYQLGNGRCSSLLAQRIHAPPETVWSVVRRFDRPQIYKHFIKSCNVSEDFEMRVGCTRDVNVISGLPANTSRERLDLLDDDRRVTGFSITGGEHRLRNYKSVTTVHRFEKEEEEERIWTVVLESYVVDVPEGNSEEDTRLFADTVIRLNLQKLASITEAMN; partner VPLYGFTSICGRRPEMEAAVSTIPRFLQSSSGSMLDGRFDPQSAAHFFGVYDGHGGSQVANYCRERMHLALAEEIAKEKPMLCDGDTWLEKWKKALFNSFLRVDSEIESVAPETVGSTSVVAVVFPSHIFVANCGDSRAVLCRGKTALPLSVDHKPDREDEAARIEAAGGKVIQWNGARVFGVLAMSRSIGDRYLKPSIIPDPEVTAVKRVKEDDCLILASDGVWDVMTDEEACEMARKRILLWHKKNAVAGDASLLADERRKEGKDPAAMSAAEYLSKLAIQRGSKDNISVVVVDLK
Variant = P83S; value = 26.1%
Variant = T173I; value = 1.7%
Variant = V143A; value = 3.42%
Variant = S27W; value = 4.64%
Variant = F157S; value = 5.82%
Variant = E14R; value = 3.86%
Variant = G148T; value = -2.54%
Variant = G23H; value = 13.7%
Variant = L20Q; value = 33.6%
Variant = F47W; value = -2.94%
Variant = S26P; value = 0.199%
Variant = F124L; value = 36.4%
Variant = P37F; value = -2.75%
Variant = E128S; value = 34.8%
Variant = E125Q; value = 48.2%
Variant = Q7S; value = 27.1%
Variant = E130D; value = 47.7%
Variant = Q167E; value = 33.6%
Variant = V145M; value = -11.2%
Variant = I57R; value = -2.06%

Block 3
Target: Ras GTPase-activating protein-binding protein 1, full length (G3BP1, Homo sapiens, UniProt Q13283)
UniProt Q13283, sequence (whole entry, looked up): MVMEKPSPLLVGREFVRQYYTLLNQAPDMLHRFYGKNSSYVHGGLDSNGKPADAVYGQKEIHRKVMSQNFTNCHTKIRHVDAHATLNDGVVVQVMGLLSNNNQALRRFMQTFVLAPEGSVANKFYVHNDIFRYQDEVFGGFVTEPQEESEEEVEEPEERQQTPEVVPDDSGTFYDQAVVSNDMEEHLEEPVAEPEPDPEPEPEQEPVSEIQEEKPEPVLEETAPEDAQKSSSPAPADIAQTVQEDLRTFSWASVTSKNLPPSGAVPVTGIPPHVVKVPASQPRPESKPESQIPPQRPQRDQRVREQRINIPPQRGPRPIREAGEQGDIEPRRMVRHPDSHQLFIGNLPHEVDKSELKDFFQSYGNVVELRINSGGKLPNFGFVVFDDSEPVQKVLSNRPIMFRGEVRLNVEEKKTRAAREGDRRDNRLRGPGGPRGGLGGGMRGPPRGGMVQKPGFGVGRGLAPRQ
Method: RNA Bind-n-Seq
Molecule type: RNA
Matrix: in vitro
Concentration: 200 nM
Notes: whole 134-nt RNA, ends assumed
Together with: 150 mM KCl
Relative to: input library
Direction: higher = stronger binding
Measurement: log2 enrichment
All sequences stand within: GGGAGUUCUACAGUCCGACGAUC … UGGAAUUCUCGGGUGUCAAGG
Sequence = UGGCCCUUCCCCUGGAGCCAUGCUGGGCCCUAGCCCGGGUCCCUCGCCGGGCUCCGCCCACAGCAUGAUGGGGCCCAGCCCAGGGCCGCC; value = 0.375
Sequence = UCCUGUGCUACACAUCGUAUGUACCGAAUCGGGAAAAAAGGGAAAAAAGGAAAAAAGGGAAAGUAUUAUGUUACGCCGUUCGGAUCUGCA; value = -0.454
Sequence = UCCUGUGCUACACAUCGUAUGUACCGAAUCGGGUUUGGGUUUUUUUGGGAAAAAAAGGGAAAGUAUUAUGUUACGCCGUUCGGAUCUGCA; value = -0.158
Sequence = UGUGCUACACAUCGUAUGUACCGAAUCGGGAAAAAAAGGGGAAAAAAAGGGGAAAAAAAGGGGAAAGUAUUAUGUUACGCCGUUCGGAUC; value = -0.468
Sequence = CAAAGACAACACGCACCCACACAGACACAGAGGGAAGGGGUUGGGAUGGGGACAGGGUGCACAGCAGGGCGGGGUAGGACCCCAGCCCCU; value = 1.84
Sequence = AGUCCUGUGCUACACAUCGUAUGUACCGAAUCGGGAAAAGGGGAAAAGGGGAAAAGGAAAGUAUUAUGUUACGCCGUUCGGAUCUGCACU; value = -0.337
Sequence = CAAGUCCUGUGCUACACAUCGUAUGUACCGAAUCGGGUUUUUUUGGGAGGGUGGGAAAGUAUUAUGUUACGCCGUUCGGAUCUGCACUUC; value = 0.483
Sequence = CACAGACAACACGCACCCACACAGACACAGAGGGAAGGGGUUGGGAUGGGGACAGGGUGCACAGCAGGGCGGGGUAGGACCCCAGCAAAU; value = 1.92
Sequence = CCUCAAGUCCUGUGCUACACAUCGUAUGUACCGAAUCGGGGCGGCGGGCGGGGAAAGUAUUAUGUUACGCCGUUCGGAUCUGCACUUCCA; value = 0.872

Block 4
Target: RNA binding protein fox-1 homolog 2, RRM domain, GST-SBP tag (RBFOX2, Homo sapiens, UniProt O43251-10, residues 100-194)
Method: RNA Bind-n-Seq
Molecule type: RNA
Matrix: in vitro
Concentration: 365 nM
Notes: natural RNA segment, single round, ends assumed
Relative to: no-protein control
Direction: higher = stronger binding
Measurement: RBNS enrichment (R)
All sequences stand within: GGGAGUUCUACAGUCCGACGAUC … UGGAAUUCUCGGGUGCCAA
Residues (chain): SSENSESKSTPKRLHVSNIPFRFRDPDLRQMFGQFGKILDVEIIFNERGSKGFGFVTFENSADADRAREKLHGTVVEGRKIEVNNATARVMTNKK
Sequence = ACCUCUUUGGGGACAAGAGGAUUACAUCUCAGGCCAGCAAGAUCAGCUGCUUGAAGCUCUGUGUAAGAGCACUGCACUGACGGUUUGGAGACCUGAGCCUGGGUCCUGAC; value = 0.51
Sequence = GACGCAGACCCCAGCAGGUUCAGUCCCGUGCUGCCACCAGCUGUCCAGCUGGGUGUCUGGAGGGAAGAGGGCAGAGGAGGGUCAUGUCCCUUCAGCUGGGGGAGGGGCCC; value = 0.562
Sequence = UAGACACUCAUUUAGUGCCCAGGGAGUCCAGCGAAUGACGUCUGUGGCCAAGCGAGGUCUCAGGUGCAAAGCAAAAGGACCAUUUAAAGUAAAAUAGCUUGGAUUCAAUC; value = 0.222
Sequence = GAGGGCUGGAGCAUGGCACGGCAUGGAUUAACACGGCAGAGGAACAAAGGUGUGCUCUGAGCUUCUUCAUAUUUCACCUUCACCCUCACCUGUGUUCUCUUCCCUCUCUC; value = 1.05
Sequence = GGUGUCUCAUAGUCACUCAUAGUGGGGUGGUCAGGGGUAAUGGCAUCUCCCCACUUUAGGCUUCUCAAACAGACUUUUGACACCUCUCAAGUUCAGAGCUCUGAUGUGGA; value = 0.637
Sequence = UGUGAAUUCAUUACGAAGAAUGUUCGAGAGAAAGCAGGGGUCUAAUCCAAAAGAAAUGUCAUUAACCAAUACUCCAAGUCCUUGAGUUUUGUUAUAUCUGAACUAGUUGA; value = 0.752
Sequence = GGUGUUCAUGUUAGUUUCUUCAAAACCCUAUCUAAUACUAGGCAAAGUAGCCAAGAGCCUUUUGUUUUGUUUUUAUUUUGAUAAAUUAGUGGAGAAAUGGCAUUUUAAGA; value = 0.525
Sequence = CAGACAGGCAGCUUUCCCAGCUGGUUAAAGAAGCUGGGCCCUUUUCCUCCCACACCCUGCCAGCCUUGCAUAAGCCAUUUGUUGCAGCAUUUGUUGCUCUUGGUCCAGUC; value = 0.627

Block 5
Target: CCNB2, cyclin fold, Cln2 fusion (human)
Method: yeast growth competition, sequencing
Matrix: yeast
Notes: weak parent motif
Relative to: not given
Direction: higher = stronger binding
Measurement: normalised enrichment score
Starting sequence: HIRA docking peptide (human); SLSKRKLELEVET; partner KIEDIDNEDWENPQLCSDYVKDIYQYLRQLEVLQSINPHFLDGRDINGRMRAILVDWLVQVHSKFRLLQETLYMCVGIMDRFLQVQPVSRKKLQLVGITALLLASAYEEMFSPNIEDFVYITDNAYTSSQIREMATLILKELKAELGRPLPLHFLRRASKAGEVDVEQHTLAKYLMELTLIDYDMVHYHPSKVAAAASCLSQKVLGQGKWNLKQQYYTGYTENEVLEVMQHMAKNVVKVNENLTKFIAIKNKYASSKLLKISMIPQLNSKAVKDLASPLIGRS
Variant = L7A; value = -0.287
Variant = K4A; value = -0.375
Variant = S1A; value = -0.0463
Variant = E12A; value = -0.0878
Variant = R5A L7A; value = -0.239
Variant = R5K; value = 0.0379
Variant = L9F; value = -0.0649
Variant = E10A; value = -0.437
Variant = E8A; value = 0.365
Variant = K6A; value = -0.189

Some of these lines once more (block 4):
Sequence = UAGACACUCAUUUAGUGCCCAGGGAGUCCAGCGAAUGACGUCUGUGGCCAAGCGAGGUCUCAGGUGCAAAGCAAAAGGACCAUUUAAAGUAAAAUAGCUUGGAUUCAAUC; value = 0.222
Sequence = GGUGUUCAUGUUAGUUUCUUCAAAACCCUAUCUAAUACUAGGCAAAGUAGCCAAGAGCCUUUUGUUUUGUUUUUAUUUUGAUAAAUUAGUGGAGAAAUGGCAUUUUAAGA; value = 0.525
Sequence = GGUGUCUCAUAGUCACUCAUAGUGGGGUGGUCAGGGGUAAUGGCAUCUCCCCACUUUAGGCUUCUCAAACAGACUUUUGACACCUCUCAAGUUCAGAGCUCUGAUGUGGA; value = 0.637
Sequence = CAGACAGGCAGCUUUCCCAGCUGGUUAAAGAAGCUGGGCCCUUUUCCUCCCACACCCUGCCAGCCUUGCAUAAGCCAUUUGUUGCAGCAUUUGUUGCUCUUGGUCCAGUC; value = 0.627
